# Assay results collected from several papers.
# Every numbered part comes from another study and shows a few of its results, in no order. ± gives the spread as reported.
# Chain of UniProt P17948 (whole entry, looked up): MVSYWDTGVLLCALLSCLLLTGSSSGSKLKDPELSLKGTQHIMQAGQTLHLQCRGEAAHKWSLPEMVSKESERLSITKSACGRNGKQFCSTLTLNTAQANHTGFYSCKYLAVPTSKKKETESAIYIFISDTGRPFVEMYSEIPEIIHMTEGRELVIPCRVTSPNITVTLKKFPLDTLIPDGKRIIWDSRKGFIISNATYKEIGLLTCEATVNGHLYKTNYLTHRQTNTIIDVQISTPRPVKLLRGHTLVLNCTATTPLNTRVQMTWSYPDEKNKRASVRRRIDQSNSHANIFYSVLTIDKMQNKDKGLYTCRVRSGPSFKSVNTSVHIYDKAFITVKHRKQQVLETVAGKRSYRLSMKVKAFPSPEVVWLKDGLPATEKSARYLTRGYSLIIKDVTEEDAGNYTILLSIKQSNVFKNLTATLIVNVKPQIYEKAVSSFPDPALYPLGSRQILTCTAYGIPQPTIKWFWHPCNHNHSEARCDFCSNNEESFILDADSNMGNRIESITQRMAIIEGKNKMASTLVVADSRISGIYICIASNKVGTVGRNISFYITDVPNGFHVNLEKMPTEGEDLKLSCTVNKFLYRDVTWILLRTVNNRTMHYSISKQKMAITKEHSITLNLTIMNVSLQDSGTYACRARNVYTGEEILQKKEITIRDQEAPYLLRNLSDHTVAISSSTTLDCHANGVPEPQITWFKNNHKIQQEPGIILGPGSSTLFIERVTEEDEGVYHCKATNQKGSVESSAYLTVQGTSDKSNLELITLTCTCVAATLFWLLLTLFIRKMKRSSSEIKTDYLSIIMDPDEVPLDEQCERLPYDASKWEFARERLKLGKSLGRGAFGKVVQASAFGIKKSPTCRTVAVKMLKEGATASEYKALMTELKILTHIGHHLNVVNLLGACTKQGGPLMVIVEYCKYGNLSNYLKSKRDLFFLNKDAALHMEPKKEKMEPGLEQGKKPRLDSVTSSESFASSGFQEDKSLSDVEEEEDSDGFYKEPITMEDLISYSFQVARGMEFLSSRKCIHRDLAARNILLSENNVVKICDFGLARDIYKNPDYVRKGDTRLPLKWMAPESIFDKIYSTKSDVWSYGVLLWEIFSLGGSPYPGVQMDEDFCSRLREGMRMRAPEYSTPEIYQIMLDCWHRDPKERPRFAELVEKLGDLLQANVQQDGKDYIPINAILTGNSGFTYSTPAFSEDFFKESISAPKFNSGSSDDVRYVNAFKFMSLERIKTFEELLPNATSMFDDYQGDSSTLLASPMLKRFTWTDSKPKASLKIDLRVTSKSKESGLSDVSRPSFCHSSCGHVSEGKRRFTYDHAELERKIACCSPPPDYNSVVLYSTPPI

# Set 1 — organism: Enterobacter cloacae; strain: ATCC 23355
SMILES,MBC/MIC ratio
Cc1ccc(N=Nc2c(N)nn3c(-c4ccc(Cl)cc4Cl)cc(-c4ccc(OCc5ccccc5)cc4)nc23)cc1,2
Nc1nn2c(-c3ccco3)cc(-c3ccc(OCc4ccccc4)cc3)nc2c1N=Nc1ccc(F)cc1,4
COc1ccc(N=Nc2c(N)nn3c(-c4ccc(Cl)cc4Cl)cc(-c4ccc(OCc5ccccc5)cc4)nc23)cc1,4
Cc1ccc(N=Nc2c(N)nn3c(-c4ccco4)cc(-c4ccc(OCc5ccccc5)cc4)nc23)cc1,3.9

# Set 2 — target: human lysosomal acid alpha-glucosidase; mode: inhibitor; added: pNPG substrate
Compound,IC50 [µg/mL]
COc1cc(/C=N/NC(=S)N/N=C/c2ccc(N(C)C)cc2)ccc1Oc1ccnc2cc(Cl)ccc12,12.7 ± 0.25
COc1cc(/C=N/NC(=S)N/N=C/c2ccc(Cl)cc2)ccc1Oc1ccnc2cc(Cl)ccc12,10.8 ± 0.74
COc1cc(/C=N/NC(=S)NN=Cc2sccc2C)ccc1Oc1ccnc2cc(Cl)ccc12,8.12 ± 0.34
COc1cc(/C=N/NC(=S)N/N=C\c2ccc([N+](=O)[O-])cc2)ccc1Oc1ccnc2cc(Cl)ccc12,8.58 ± 0.32

# Mixed results
Compound,target or system,test,conditions,measurement,value
O=C(O)c1cn(Cc2ccc(C(F)(F)F)cc2)c2ccc(Oc3ccccc3)cc2c1=O,MDA-MB-231,,72 h,CC50,38.2 ± 0.86 µM
O=C(Nc1cc(-c2ccc(Cl)cc2)[nH]n1)C1CCCCC1,"FLT1 (Homo sapiens, UniProt P17948)","enzyme activity, Dundee kinase panel",10 µM,remaining activity,75%
CCOC(=O)C(=CNc1ccc(Oc2ccccc2)cc1)C(=O)OCC,Jurkat,,72 h,CC50,34.5 ± 1.5 µM
O=C(O)c1c[nH]c2ccc(Oc3ccccc3)cc2c1=O,Jurkat,,72 h,CC50,21.87 ± 0.18 µM

# Excerpt of the above (set 1):
SMILES,MBC/MIC ratio
COc1ccc(N=Nc2c(N)nn3c(-c4ccc(Cl)cc4Cl)cc(-c4ccc(OCc5ccccc5)cc4)nc23)cc1,4
Cc1ccc(N=Nc2c(N)nn3c(-c4ccco4)cc(-c4ccc(OCc5ccccc5)cc4)nc23)cc1,3.9
